Measured values pooled from the literature.
A part holds a random share of what one study measured. Substitutions count along the parent as printed.

Sample 1 — method: competition protein-binding microarray; form: double-stranded DNA, one strand shown; medium: in vitro; tested at: 2 µM; added: Cbf1 competitor, 0.05 µM; direction: higher = stronger binding
Target: Phosphate system positive regulatory protein PHO4, full length, GST-tagged (PHO4, Saccharomyces cerevisiae, UniProt P07270, residues 1-312)
Notes: whole 60-bp probe, lowest competitor level
Construct (chain): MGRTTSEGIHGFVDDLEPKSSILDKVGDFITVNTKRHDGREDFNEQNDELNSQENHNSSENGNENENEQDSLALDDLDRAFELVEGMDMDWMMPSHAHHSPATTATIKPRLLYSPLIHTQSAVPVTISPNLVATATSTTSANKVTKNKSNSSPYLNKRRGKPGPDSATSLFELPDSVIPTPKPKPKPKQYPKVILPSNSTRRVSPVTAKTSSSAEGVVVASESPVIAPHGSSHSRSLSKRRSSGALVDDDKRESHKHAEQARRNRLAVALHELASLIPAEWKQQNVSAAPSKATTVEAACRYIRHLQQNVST
Sequence | fluorescence intensity
CTTGCCGAGATGGTGTTCGTGACGGAAATTGTGGAAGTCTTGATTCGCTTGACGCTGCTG | 5020 a.u.
AACTTTCTAGTCGACCACGTGAGTCCGCCCAGTCTTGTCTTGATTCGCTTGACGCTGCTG | 17800 a.u.
TTTACAAGCCAGAAAGCCGTGATGGCTTGATTATCAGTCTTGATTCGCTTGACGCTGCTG | 3240 a.u.
TGCGCAACAACTTGTCACTCTACTTTATGTCTAGAAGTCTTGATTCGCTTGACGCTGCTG | 3380 a.u.
GCATTTTTCGGGGCGCCCGTGCAAAAACTAACTCCGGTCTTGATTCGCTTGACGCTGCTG | 7330 a.u.
GCTCGCAGGGTCAACCACGTGCTGGGGAGAGGAGCCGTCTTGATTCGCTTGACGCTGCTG | 15300 a.u.
TGCGCAACAACTTTTCACGTGGCCTTATGTCTAGAAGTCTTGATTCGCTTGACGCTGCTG | 13600 a.u.
TTTCTTATGAAAATCAGTGTGACAGTAATGAGACTTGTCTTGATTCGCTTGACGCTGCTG | 3400 a.u.

Sample 2 — method: RNA Bind-n-Seq; form: RNA; medium: in vitro; tested at: 1 µM; notes: whole 134-nt RNA, ends assumed; added: 150 mM KCl; baseline: input library; direction: higher = stronger binding
Target: Ras GTPase-activating protein-binding protein 1, RRM domain (G3BP1, Homo sapiens, UniProt Q13283)
Sequence of UniProt Q13283 (whole entry, looked up): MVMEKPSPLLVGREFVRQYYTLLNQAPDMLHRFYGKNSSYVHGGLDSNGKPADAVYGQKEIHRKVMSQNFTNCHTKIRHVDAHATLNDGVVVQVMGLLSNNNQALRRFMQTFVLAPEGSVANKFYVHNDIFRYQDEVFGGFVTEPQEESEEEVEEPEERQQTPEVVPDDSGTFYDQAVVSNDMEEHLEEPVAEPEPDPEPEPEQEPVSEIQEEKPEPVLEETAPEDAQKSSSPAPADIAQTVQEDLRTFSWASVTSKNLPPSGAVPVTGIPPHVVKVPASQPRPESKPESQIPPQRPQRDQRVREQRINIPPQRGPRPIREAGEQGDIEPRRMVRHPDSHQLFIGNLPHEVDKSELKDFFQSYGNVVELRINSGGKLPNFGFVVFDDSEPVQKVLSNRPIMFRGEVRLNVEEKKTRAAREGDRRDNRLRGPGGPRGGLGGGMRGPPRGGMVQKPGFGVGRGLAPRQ
Sequence | log2 enrichment
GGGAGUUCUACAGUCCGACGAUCUAGUGAUGAAAAAUUUCUCCCUUCUAGGUUUCCCUUGGGGGCUUUGAAAUAACACCACCAGUGGUCUUAAGGUUGAAGUGUGGUUCAGGGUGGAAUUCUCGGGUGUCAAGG | -0.274
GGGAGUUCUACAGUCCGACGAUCACCAUGCAGGUGGGCAUCUUUGGGAAGUGGGGCAAGCGGGGGAUAGGGAGGGGGGUAACACUUUGGGAACAGGUGGUCCCAGGUCGUUUCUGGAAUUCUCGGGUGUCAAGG | -0.317
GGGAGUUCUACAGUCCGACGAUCCCUGUGCUACACAUCGUAUGUACCGAAUCGGGGAAAAAAAGGGGAGGGGUUUUUUUGGGGAAAGUAUUAUGUUACGCCGUUCGGAUCUGCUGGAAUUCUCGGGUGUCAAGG | 0.523
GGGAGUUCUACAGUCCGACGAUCAGUCCUGUGCUACACAUCGUAUGUACCGAAUCAAACCCAAACCCCCCCAAACCCAAAAAAGUAUUAUGUUACGCCGUUCGGAUCUGCACUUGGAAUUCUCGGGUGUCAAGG | -0.273
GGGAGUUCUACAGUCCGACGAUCACCAUGCAGGUGGCCAUCUUUGGGAAGUGGGGCAAGGGGGGGAUAGGGAGGGGGGUAACACUUUGGGAACAGGUGGUCCCAGGUCGUUUCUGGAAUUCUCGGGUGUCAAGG | -0.504
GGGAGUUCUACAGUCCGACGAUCUGGUUUGAGUCCAGCCAAUGACACUGGAGCCAAAAAGAAGAAAAAGAAACAAAAAAAGAAGAAAGAAAAAGGCAGUGAGACAGAUUCAGCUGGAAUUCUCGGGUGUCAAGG | 0.236
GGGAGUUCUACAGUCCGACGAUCUUUAUCAUGAGGAGCUCAACGCGCCCAUACGGAGAAACAAAGAAGAGCCCAAGGCCCGGCCCUUGAGAGUAGGUGACACGGAGAAGCCAGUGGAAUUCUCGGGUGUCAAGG | -0.193
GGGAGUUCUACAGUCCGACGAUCUCAAGUCCUGUGCUACACAUCGUAUGUACCGAAUCGGGUUUGGGUGGGUUUGGGAAAGUAUUAUGUUACGCCGUUCGGAUCUGCACUUCCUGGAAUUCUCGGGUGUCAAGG | 0.705

Sample 3 — target: CCND2, cyclin fold, Cln2 fusion (human); method: yeast growth competition, sequencing; medium: yeast; notes: weak parent motif; baseline: not given; direction: higher = stronger binding; parent: viral docking peptide; KKAKRRLFTISDS
Change | normalised enrichment score
R5A | 0.307
S13A | 0.476
R5K F8L | -0.144
K1A | 0.276
D12A | -0.0522
I10A | -0.00666
R5A L7A | -0.085
R6A | 0.716
R5K | -0.282

Single results of other studies
SMILES | target | assay | setting | quantity | value
O=C(NNS(=O)(=O)c1ccccc1F)c1cc(F)cc(-c2ccccn2)c1 | D(1B) dopamine receptor (DRD5, Homo sapiens, UniProt P21918) | cell-free assay | 10 µM | inhibition | 4.57%
